Earlier results as cited in several papers.
Numbered parts are unrelated; values within a part may stem from several laboratories.

Sample 1
Organism: Cryptosporidium parvum
Method: high-throughput screen
Tested at: concentration not given
For `CCCCC(=O)O[C@]1(C(=O)CO)CC[C@H]2[C@@H]3CCC4=CC(=O)CC[C@]4(C)[C@H]3[C@@H](O)C[C@@]21C`, activity read “inactive”.
`CN(C)CCCN1c2ccccc2Sc2ccc(Cl)cc21`: activity “inactive”.
Under activity, `Cc1nccn1CC1CCc2c(c3ccccc3n2C)C1=O` (stereo not shown) is recorded as “inactive”.

Further values, each from its own experiment
`O[C@]1(C(F)(F)F)CCCC[C@H]1Nc1ccc(F)cc1` gave an EC50 of 2100 nM (estrogen receptor alpha; radioligand binding).
`CCN(c1cc(-c2ccc(CN3CCOCC3)cc2)cc(C(=O)NCc2c(C)cc(C)[nH]c2=O)c1C)C1CCOCC1`: “objective response rate” 34% (human patients, EZH2 wild-type, relapsed or refractory follicular lymphoma; dose not given).
The IC50 of `O=C(Nc1nc2ccccc2s1)c1cccc2c1CN(c1nc(C(=O)O)c(CCOc3ccc(-n4ncc5cncnc54)cc3)s1)CC2` is reported as 270 nM (BCL2L1; biochemical).
`CCc1c(N(CC)C2CCOCC2)cc2oc(CN3CCCCC3)cc2c1C(=O)NCc1c(C)cc(C)[nH]c1=O`: “decreased platelet count incidence” 39% (patients; dose not given).
`COc1cccc(CNC(=O)c2nc3scc(COCc4ccc(C(=O)O)cc4)c3c(=O)[nH]2)c1` gave an IC50 of 0.0069 nM (MMP13 (human); enzyme activity).
`C[C@@H](c1ncncc1F)[C@](O)(Cn1cncn1)c1ccc(F)cc1F`: inhibition “no inhibition” (BCRP; in vitro; concentration not given).
`O=C(NCc1ncc(C(F)(F)F)cc1Cl)c1ccc2c(c1)C1(CCS(=O)(=O)CC1)[C@@H](C1CC1)N2S(=O)(=O)c1ccc(F)cc1` gave an IC50 of 10700 nM (MAPK14; enzyme activity, Eurofins-Panlabs panel).

Some of these lines once more (further values, each from its own experiment):
`COc1cccc(CNC(=O)c2nc3scc(COCc4ccc(C(=O)O)cc4)c3c(=O)[nH]2)c1` gave an IC50 of 0.0069 nM (MMP13 (human); enzyme activity).
